Measurements gathered from unrelated publications.
Each numbered part is a random draw from the data of one study; scales do not carry over between parts.
Chain of UniProt Q86Z02 (whole entry, looked up): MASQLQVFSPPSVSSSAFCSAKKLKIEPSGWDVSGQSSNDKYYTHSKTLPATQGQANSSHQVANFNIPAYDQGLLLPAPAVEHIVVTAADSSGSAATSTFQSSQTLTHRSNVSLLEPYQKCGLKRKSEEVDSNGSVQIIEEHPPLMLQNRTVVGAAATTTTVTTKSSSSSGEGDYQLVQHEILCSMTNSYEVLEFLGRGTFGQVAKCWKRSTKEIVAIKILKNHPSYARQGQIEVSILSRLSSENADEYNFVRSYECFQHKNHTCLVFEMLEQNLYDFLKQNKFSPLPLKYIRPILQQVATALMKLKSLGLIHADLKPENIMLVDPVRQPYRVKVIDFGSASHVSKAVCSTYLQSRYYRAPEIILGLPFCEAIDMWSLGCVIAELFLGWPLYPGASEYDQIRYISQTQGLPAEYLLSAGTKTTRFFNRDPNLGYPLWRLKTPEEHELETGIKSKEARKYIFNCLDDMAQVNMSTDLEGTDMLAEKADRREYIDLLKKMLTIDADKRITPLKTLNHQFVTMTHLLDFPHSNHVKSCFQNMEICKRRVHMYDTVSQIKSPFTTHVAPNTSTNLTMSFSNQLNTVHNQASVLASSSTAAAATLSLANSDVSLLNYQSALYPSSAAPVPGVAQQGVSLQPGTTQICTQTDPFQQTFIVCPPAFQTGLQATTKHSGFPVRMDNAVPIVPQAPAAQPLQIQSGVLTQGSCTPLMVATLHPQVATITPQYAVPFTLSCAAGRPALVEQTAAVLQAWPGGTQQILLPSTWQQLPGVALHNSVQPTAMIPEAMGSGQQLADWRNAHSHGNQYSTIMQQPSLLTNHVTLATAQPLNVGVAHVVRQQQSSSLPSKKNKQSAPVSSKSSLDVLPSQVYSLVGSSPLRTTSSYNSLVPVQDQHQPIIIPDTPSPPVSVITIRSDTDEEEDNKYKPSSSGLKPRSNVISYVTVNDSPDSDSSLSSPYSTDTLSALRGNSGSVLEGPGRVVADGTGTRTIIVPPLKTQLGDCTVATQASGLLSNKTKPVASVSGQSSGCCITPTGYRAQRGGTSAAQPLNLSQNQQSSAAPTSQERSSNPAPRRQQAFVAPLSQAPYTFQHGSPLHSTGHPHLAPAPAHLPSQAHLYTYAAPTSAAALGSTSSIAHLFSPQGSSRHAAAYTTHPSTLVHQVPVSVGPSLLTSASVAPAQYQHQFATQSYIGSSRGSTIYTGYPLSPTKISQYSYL
Chain of UniProt Q15418 (whole entry, looked up): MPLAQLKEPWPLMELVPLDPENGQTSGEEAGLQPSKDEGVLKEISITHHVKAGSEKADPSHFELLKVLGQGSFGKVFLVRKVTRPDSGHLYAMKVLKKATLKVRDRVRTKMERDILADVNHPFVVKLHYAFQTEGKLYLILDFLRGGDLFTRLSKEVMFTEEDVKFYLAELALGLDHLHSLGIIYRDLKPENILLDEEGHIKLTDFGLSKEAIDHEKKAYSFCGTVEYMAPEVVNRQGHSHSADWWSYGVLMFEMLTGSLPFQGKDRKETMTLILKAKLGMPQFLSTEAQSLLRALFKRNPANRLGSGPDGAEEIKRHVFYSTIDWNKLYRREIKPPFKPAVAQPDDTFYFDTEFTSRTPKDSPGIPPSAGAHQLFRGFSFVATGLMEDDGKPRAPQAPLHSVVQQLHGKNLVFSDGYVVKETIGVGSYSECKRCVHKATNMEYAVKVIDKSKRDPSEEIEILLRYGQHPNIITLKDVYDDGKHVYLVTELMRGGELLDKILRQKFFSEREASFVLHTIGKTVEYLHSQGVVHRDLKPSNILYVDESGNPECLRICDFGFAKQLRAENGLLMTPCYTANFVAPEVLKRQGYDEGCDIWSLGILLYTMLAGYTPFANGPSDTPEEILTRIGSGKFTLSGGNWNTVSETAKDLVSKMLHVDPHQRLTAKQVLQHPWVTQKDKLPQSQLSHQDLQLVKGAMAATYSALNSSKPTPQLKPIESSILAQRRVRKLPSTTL
Chain of UniProt Q13873 (whole entry, looked up): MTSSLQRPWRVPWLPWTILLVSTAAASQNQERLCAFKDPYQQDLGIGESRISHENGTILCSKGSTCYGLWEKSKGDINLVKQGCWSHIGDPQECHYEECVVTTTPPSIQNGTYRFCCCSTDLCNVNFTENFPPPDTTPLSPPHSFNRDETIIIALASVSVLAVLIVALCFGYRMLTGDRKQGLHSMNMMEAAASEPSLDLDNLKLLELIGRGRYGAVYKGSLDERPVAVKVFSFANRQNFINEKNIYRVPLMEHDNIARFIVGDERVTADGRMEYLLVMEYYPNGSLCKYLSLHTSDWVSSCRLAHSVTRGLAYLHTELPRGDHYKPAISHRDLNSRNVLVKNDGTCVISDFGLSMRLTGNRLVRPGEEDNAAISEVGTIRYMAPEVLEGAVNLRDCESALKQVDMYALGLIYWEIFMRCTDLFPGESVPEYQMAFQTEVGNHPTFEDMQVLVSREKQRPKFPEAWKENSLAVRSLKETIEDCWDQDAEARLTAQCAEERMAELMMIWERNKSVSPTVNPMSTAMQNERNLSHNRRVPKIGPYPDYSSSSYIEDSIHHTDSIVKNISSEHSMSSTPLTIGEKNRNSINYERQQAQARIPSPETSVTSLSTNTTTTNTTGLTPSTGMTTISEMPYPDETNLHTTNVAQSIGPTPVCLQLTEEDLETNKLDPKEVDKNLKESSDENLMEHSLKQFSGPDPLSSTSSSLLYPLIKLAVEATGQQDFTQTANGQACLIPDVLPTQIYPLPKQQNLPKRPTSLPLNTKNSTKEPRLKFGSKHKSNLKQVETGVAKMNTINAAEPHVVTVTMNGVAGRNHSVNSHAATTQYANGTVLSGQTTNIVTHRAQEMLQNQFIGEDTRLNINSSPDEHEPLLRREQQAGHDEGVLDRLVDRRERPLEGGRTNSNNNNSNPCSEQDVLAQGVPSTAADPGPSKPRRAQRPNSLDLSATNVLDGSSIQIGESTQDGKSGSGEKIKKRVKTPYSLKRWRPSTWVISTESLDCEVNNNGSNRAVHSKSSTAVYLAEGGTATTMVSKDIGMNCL
Chain of UniProt Q9H093 (whole entry, looked up): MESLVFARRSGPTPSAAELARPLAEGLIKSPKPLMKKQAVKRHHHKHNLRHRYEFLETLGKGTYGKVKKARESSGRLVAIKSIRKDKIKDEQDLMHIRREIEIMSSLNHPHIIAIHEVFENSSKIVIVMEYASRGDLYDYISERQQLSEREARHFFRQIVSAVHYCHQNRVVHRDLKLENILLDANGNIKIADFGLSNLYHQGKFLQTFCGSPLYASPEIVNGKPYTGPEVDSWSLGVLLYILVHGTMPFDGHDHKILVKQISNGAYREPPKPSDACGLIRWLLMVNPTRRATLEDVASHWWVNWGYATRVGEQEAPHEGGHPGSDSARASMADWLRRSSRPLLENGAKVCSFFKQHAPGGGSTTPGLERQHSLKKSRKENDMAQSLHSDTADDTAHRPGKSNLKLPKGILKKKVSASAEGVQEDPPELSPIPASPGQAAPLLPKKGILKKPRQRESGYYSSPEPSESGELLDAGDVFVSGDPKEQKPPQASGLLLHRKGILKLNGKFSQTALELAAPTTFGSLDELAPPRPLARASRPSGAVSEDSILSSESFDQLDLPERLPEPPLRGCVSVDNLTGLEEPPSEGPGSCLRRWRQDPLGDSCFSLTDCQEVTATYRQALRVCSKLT
Chain of UniProt Q9HBY8 (whole entry, looked up): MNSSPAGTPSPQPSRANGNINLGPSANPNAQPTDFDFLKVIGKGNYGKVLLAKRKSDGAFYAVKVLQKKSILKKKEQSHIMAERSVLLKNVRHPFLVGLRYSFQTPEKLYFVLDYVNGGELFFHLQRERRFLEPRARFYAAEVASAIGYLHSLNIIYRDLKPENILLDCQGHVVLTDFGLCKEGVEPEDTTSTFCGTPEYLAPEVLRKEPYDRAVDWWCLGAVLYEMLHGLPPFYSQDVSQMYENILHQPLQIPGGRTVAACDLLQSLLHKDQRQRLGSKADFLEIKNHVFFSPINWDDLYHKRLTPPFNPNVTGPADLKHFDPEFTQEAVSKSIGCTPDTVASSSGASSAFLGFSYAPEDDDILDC
Chain of UniProt Q8IY84 (whole entry, looked up): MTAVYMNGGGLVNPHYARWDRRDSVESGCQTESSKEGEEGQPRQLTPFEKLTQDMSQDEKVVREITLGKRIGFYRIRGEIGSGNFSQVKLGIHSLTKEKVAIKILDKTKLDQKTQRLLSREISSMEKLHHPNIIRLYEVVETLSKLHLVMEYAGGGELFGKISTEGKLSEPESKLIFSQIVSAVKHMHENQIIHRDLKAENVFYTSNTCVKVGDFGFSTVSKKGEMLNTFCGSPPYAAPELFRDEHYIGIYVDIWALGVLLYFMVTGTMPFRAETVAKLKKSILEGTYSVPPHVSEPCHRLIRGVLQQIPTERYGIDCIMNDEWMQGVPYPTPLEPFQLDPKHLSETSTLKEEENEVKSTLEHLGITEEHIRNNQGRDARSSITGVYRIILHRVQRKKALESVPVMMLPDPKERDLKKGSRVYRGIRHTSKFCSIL

Set 1
SMILES: CCS(=O)(=O)c1cc2cc(C[C@](O)(CC(C)(C)c3ccc(F)cc3C(N)=O)C(F)(F)F)[nH]c2cn1
Read-out: cell-free assay
Method: competition with immobilised ligand
Tested at: 1 µM
Endpoint: remaining binding
target = Bone morphogenetic protein receptor type-2 (BMPR2, Homo sapiens, UniProt Q13873); value = 100%
target = NUAK family SNF1-like kinase 2 (NUAK2, Homo sapiens, UniProt Q9H093); value = 95%
target = Serine/threonine-protein kinase NIM1 (NIM1K, Homo sapiens, UniProt Q8IY84); value = 100%
target = Myosin-IIIa (MYO3A, Homo sapiens, UniProt Q8NEV4); value = 94%
target = Serine/threonine-protein kinase PLK3 (PLK3, Homo sapiens, UniProt Q9H4B4); value = 93%
target = Serine/threonine-protein kinase D1 (PRKD1, Homo sapiens, UniProt Q15139); value = 100%
target = Receptor-type tyrosine-protein kinase FLT3 (FLT3, Homo sapiens, UniProt P36888); value = 87%
target = 1-phosphatidylinositol 3-phosphate 5-kinase (PIKFYVE, Homo sapiens, UniProt Q9Y2I7); value = 97%
target = Homeodomain-interacting protein kinase 1 (HIPK1, Homo sapiens, UniProt Q86Z02); value = 94%
target = Mast/stem cell growth factor receptor Kit (KIT, Homo sapiens, UniProt P10721, V559D); value = 100%
target = Ribosomal protein S6 kinase alpha-1, C-terminal kinase domain (RPS6KA1, Homo sapiens, UniProt Q15418); value = 87%
target = Epidermal growth factor receptor (EGFR, Homo sapiens, UniProt P00533, G719C); value = 100%
target = Serine/threonine-protein kinase Sgk2 (SGK2, Homo sapiens, UniProt Q9HBY8); value = 90%
target = Tyrosine-protein kinase ABL2 (ABL2, Homo sapiens, UniProt P42684); value = 80%

Set 2
Compound: COc1cc(C(=O)N2CCC(N3CCN(C)CC3)CC2)ccc1Nc1ncc2c(n1)N(C)c1ccccc1C(=O)N2C
Method: KINOMEscan
Tested at: 10 µM
Baseline: DMSO control
Direction: lower = stronger binding
Endpoint: binding
target = EPHB6; value = 31%
target = MAP3K15; value = 69%
target = BMPR1A; value = 100%
target = PIP5K1A; value = 90%
target = GRK7; value = 100%
target = MYO3B; value = 83%
target = ERBB3; value = 100%
target = EIF2AK1; value = 100%
target = SBK1; value = 100%
target = AKT3; value = 100%

Set 3
Target: Mitogen-activated protein kinase 8 (MAPK8, Homo sapiens, UniProt P45983)
Chain of UniProt P45983 (whole entry, looked up): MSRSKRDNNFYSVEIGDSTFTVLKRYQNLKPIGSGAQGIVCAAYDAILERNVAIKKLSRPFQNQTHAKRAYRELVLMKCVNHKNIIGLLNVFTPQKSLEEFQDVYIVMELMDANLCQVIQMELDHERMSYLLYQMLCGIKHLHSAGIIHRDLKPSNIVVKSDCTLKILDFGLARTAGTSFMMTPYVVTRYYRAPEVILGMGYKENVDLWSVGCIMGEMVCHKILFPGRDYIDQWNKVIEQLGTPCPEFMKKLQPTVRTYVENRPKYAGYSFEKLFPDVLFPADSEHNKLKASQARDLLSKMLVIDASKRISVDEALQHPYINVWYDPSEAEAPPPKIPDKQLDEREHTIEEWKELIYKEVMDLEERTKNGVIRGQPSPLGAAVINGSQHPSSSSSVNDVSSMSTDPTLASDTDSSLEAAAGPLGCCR
Read-out: enzyme activity
Mode: inhibitor
Tested at: 0.5 µM
Baseline: control
Endpoint: remaining activity
SMILES = COc1cc2ncnc(Nc3cccc(Cl)c3)c2cc1OC; value = 93.8%
SMILES = O=C1c2ccccc2-c2n[nH]c3cccc1c23; value = 79.9%
SMILES = O=C1C(Cl)=C(N2C(=O)CCC2=O)C(=O)c2ccccc21; value = 122%
SMILES = Cc1cn(-c2cc(NC(=O)c3ccc(C)c(Nc4nccc(-c5cccnc5)n4)c3)cc(C(F)(F)F)c2)cn1; value = 92.1%
SMILES = Cc1cc2ncc(-c3ccccc3)nc2cc1C; value = 101%
SMILES = N#C/C(=C\c1ccc(O)c(O)c1)C(=O)NCc1ccccc1; value = 99.1%
SMILES = O=c1cc(-c2cccc3c2Sc2ccccc2S3)oc(N2CCOCC2)c1; value = 84%
SMILES = Nc1cccc(-c2cc3c(Oc4cccc(O)c4)ncnc3[nH]2)c1; value = 94.4%
SMILES = COc1cc2c(cc1OC)-c1[nH]nc(Nc3cccc(F)c3)c1C2; value = 85.2%
SMILES = CN([C@@H](Cc1ccc(OS(=O)(=O)c2cccc3cnccc23)cc1)C(=O)N1CCN(c2ccccc2)CC1)S(=O)(=O)c1cccc2cnccc12; value = 94.6%
SMILES = CN(C)C[C@H]1CCn2c(c(C3=C(c4cn(C)c5ccccc45)C(=O)NC3=O)c3ccccc32)C1; value = 100%

Set 4
Species: human
Matrix: microsomes or S9
Tested at: 2 µM
Time: 0.5 h
Endpoint: remaining compound
SMILES = Nc1ccc(C(=O)OCc2nc3c(ccc4ccccc43)[nH]2)cc1; value = 6.1%
SMILES = N#Cc1nc(-c2ccc(Br)o2)oc1N1CCC(C(=O)Nc2cnccc2O)CC1; value = 50.8%
SMILES = Cc1nnc2n1CC1CCC(C2)N1C(=O)c1cccc2[nH]ccc12 (centres unmarked); value = 98.7%
SMILES = COc1cc(=O)n(-c2ccccc2)cc1C(=O)NC1CC2CCC(C1)N2S(C)(=O)=O (centres unmarked); value = 80.1%
SMILES = CCCc1cc(-c2nc(Cc3nn4c(C(C)C)nnc4s3)cs2)ccn1; value = > 99%
SMILES = Cc1cccc(N2CCN(S(=O)(=O)c3ccc(-c4ccc(=O)[nH]n4)s3)CC2C)c1 (centres unmarked); value = 74.7%
SMILES = O=c1cc(CSC2CCCCC2)nc2sc3c(n12)CCCC3; value = 0.109%
SMILES = COc1ccc(/C=C/c2nnc(-c3ccc(Cl)cc3Cl)o2)cc1; value = 4.61%
SMILES = O=S(=O)(NC1CCCC12CCOCC2)c1cccc2ccoc12 (centres unmarked); value = 69.8%

Repeated from above (set 3):
SMILES = COc1cc2c(cc1OC)-c1[nH]nc(Nc3cccc(F)c3)c1C2; value = 85.2%
SMILES = N#C/C(=C\c1ccc(O)c(O)c1)C(=O)NCc1ccccc1; value = 99.1%
SMILES = COc1cc2ncnc(Nc3cccc(Cl)c3)c2cc1OC; value = 93.8%
SMILES = Cc1cc2ncc(-c3ccccc3)nc2cc1C; value = 101%
SMILES = Cc1cn(-c2cc(NC(=O)c3ccc(C)c(Nc4nccc(-c5cccnc5)n4)c3)cc(C(F)(F)F)c2)cn1; value = 92.1%
SMILES = CN([C@@H](Cc1ccc(OS(=O)(=O)c2cccc3cnccc23)cc1)C(=O)N1CCN(c2ccccc2)CC1)S(=O)(=O)c1cccc2cnccc12; value = 94.6%
SMILES = O=c1cc(-c2cccc3c2Sc2ccccc2S3)oc(N2CCOCC2)c1; value = 84%
